Published values pooled from the literature.
Each numbered part is a random draw from the data of one study; scales do not carry over between parts. “And” joins repeats or separate records; there may be more than shown.
UniProt Q9Y4K4, sequence (whole entry, looked up): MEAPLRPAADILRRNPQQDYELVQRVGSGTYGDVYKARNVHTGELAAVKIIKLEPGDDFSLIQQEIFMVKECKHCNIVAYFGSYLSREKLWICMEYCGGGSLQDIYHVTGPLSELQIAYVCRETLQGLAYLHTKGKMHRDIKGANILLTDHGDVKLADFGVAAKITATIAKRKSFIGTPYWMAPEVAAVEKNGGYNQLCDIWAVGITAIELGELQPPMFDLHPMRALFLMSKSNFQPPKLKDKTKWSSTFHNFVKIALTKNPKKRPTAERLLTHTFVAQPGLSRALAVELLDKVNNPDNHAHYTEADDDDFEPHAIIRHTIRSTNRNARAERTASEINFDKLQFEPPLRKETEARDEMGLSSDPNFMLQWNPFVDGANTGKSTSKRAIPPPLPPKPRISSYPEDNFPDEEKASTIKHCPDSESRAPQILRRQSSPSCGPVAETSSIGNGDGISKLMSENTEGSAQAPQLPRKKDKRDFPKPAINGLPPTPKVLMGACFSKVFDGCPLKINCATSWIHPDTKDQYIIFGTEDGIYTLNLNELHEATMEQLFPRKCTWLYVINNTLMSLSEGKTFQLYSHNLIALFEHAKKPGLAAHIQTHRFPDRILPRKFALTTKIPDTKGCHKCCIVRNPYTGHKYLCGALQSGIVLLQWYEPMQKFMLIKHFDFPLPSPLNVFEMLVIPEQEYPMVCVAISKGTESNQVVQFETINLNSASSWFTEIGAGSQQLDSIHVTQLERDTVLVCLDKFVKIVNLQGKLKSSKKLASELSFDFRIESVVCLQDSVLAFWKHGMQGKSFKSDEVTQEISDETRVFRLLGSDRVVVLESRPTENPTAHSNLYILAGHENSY
UniProt P42336, sequence (whole entry, unmodified, looked up): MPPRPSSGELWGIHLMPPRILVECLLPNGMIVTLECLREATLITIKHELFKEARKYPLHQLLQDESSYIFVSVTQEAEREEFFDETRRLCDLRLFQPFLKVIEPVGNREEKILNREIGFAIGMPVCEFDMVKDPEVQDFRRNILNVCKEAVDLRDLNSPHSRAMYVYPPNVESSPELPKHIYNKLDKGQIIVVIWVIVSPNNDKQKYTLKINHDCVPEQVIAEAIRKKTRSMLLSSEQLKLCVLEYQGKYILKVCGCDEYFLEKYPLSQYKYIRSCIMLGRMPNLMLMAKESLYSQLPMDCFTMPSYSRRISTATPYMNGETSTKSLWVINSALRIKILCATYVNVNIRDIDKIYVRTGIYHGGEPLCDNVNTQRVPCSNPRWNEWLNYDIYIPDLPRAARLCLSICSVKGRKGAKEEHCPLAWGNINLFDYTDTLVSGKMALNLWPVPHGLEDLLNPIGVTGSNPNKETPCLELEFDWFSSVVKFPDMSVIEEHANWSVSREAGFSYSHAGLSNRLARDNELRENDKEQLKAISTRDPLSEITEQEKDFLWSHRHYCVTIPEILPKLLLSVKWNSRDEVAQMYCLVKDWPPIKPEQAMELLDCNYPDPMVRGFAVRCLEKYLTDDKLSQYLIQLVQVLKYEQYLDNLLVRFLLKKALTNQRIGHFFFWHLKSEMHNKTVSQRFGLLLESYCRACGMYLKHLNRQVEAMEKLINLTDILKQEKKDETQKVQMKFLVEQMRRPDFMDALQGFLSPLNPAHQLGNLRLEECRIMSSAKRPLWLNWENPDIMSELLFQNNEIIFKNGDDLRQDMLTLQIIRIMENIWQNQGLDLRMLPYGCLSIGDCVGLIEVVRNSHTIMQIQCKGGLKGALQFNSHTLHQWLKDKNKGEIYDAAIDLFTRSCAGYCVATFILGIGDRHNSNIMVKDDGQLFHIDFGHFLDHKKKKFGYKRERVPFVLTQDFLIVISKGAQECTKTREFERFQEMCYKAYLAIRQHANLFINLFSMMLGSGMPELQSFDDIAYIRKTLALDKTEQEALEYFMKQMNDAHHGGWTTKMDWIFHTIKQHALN
UniProt P21802, sequence (whole entry, looked up): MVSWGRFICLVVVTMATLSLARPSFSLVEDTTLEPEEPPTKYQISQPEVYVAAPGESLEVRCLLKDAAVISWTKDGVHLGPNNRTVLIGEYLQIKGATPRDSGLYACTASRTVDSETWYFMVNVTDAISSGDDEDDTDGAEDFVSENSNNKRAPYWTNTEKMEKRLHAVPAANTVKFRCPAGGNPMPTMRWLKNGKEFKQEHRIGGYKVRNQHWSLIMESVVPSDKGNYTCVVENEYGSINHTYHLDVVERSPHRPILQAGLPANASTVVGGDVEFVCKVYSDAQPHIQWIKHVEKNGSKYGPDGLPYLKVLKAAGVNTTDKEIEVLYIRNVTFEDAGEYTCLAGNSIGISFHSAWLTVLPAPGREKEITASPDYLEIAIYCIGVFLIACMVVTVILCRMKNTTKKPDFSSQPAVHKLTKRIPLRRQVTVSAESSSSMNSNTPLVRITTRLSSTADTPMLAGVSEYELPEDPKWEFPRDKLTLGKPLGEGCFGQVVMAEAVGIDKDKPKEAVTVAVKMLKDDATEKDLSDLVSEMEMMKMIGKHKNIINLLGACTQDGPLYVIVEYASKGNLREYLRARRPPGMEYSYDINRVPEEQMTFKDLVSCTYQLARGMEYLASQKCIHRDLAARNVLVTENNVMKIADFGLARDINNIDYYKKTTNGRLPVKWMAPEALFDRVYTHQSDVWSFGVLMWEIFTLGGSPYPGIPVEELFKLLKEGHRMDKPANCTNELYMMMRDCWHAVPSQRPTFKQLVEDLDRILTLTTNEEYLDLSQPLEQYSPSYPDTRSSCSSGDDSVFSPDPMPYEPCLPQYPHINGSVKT

Series 1
Target: Tyrosine-protein kinase Fgr (FGR, Homo sapiens, UniProt P09769)
UniProt P09769, sequence (whole entry, looked up): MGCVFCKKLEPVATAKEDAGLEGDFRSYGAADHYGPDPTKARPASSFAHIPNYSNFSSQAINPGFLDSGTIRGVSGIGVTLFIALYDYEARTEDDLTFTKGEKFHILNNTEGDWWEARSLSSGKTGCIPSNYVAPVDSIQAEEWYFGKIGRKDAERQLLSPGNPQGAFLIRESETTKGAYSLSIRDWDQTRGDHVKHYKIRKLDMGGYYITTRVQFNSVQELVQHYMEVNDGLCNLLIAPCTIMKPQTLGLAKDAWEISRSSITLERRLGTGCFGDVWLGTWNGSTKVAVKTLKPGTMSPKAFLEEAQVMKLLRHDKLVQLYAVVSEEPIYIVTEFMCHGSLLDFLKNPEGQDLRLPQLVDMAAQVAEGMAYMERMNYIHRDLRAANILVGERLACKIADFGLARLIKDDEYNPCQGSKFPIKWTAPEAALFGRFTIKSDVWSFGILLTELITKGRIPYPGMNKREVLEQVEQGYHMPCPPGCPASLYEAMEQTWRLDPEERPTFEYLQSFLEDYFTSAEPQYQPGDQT
Read-out: enzyme activity
Mode: inhibitor
Concentration: 0.5 µM
Reference: control
SMILES | remaining activity
Cc1cccc(-c2[nH]c(C(C)(C)C)nc2-c2ccc3c(c2)OCO3)n1 | 99.9%
CNC(=O)c1cc(Oc2ccc(NC(=O)Nc3ccc(Cl)c(C(F)(F)F)c3)cc2)ccn1 | 88.7%
COc1cc2ncnc(Nc3ccc(Oc4ccccc4)cc3)c2cc1OC | 8.91%
C#Cc1cccc(Nc2ncnc3cc(OCCOC)c(OCCOC)cc23)c1 | 77.6%
OCC(O)CCON=C1C(c2c(O)[nH]c3ccccc23)=Nc2ccccc21 (centres unmarked) | 11.6%
Nc1[nH]nc2nc3ccccc3nc12 | 96.3%
Cn1c2ccccc2c2c3c(c4c5ccccc5n(CCC#N)c4c21)CNC3=O | 70.7%
N#CC(C#N)=C(N)/C(C#N)=C/c1ccc(O)cc1 | 98.7%
CCOC(=O)c1c(C)[nH]c(/C=C2\C(=O)Nc3ccccc32)c1C | 79.3%
COc1ccc(C(=O)Nc2sc3c(c2C(N)=O)CCCC3)cc1OC | 90%
O=C(Nc1cccc(Nc2cc(Nc3cccc(C(F)(F)F)c3)ncn2)c1)C1CC1 | 96.4%
Cn1sc(=O)n(Cc2ccccc2)c1=O | 101%
O=S(=O)(c1cccc2cnccc12)N1CCCNCC1 | 90.5%
COc1cc2ncnc(Nc3ccc(F)c(Cl)c3)c2cc1OCCCN1CCOCC1 | 70.1%
CC(C)[C@H](CO)Nc1nc(Nc2cc(N)cc(Cl)c2)c2ncn(C(C)C)c2n1 | 15%

Series 2
SMILES: O=C1CCC(N2Cc3cc(C4CCN(Cc5ccccc5)CC4)ccc3C2=O)C(=O)N1 (centres unmarked)
Mode: degrader
IKZF4: Zinc finger protein Eos (IKZF4, Homo sapiens, UniProt Q9H2S9)
UniProt Q9H2S9, sequence (whole entry, looked up): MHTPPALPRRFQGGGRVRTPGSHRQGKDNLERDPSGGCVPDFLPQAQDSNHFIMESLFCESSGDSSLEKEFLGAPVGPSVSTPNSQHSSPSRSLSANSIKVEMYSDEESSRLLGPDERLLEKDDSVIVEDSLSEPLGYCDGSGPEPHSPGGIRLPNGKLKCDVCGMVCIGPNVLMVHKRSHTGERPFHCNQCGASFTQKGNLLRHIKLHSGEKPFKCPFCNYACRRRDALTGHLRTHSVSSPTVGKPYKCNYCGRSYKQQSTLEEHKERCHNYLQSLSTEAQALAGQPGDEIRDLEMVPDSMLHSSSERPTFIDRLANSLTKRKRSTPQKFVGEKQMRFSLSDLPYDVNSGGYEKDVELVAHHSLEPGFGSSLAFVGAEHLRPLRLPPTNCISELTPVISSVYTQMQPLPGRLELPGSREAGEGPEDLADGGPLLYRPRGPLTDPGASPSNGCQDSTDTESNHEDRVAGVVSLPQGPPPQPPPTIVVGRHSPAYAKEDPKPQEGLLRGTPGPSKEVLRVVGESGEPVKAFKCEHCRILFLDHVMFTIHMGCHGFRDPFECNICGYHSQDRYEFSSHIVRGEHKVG
CSNK1A1: Casein kinase I isoform alpha (CSNK1A1, Homo sapiens, UniProt P48729)
UniProt P48729, sequence (whole entry, looked up): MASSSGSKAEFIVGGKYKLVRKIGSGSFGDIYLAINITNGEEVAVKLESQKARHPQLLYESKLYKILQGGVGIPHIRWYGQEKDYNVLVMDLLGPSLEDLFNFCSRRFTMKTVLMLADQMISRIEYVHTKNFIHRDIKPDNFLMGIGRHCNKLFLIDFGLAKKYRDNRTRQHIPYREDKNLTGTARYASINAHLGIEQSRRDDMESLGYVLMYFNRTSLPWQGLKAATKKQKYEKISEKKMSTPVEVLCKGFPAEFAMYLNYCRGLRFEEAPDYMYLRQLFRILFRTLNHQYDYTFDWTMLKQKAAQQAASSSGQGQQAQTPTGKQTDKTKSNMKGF
DNA-binding protein Ikaros: DNA-binding protein Ikaros (Homo sapiens, UniProt Q13422)
UniProt Q13422, sequence (whole entry, looked up): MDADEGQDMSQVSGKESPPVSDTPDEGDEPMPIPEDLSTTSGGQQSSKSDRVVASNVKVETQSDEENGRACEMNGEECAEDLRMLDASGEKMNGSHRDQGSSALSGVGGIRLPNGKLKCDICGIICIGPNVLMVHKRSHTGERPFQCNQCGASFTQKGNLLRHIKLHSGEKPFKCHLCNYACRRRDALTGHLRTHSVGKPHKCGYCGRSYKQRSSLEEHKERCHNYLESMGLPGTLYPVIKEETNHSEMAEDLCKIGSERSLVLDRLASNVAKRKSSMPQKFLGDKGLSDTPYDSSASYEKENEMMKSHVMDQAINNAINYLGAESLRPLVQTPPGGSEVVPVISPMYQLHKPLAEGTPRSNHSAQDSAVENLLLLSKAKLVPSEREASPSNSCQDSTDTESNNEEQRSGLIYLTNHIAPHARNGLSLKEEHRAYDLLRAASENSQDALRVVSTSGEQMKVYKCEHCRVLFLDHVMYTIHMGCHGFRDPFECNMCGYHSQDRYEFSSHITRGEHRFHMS
target | assay | system | conditions | remaining protein
Eukaryotic peptide chain release factor GTP-binding subunit ERF3A (GSPT1, Homo sapiens, UniProt P15170) | HiBiT | HEK293 | 3.333 µM, 6 h | 110%
IKZF4 | HiBiT | HEK293 | 0.004115 µM, 3 h | 115%
CSNK1A1 | HiBiT | HEK293 HiBiT-CK1α | 1.524 nM | 102% and 90%
CSNK1A1 | HiBiT | HEK293 | 0.0005081 µM, 6 h | 102%
IKZF4 | HiBiT | HEK293 | 0.001372 µM, 6 h | 113%
DNA-binding protein Ikaros | HiBiT | HEK293 | 0.04115 µM | 88.8% and 109%
DNA-binding protein Ikaros | HiBiT | HEK293 | 3.333 µM | 92.1% and 87.9%
IKZF4 | HiBiT | HEK293 | 5.08e-05 µM, 3 h | 113%
CRBN/Zinc finger protein Helios (Homo sapiens, UniProt Q96SW2+Q9UKS7) | flow cytometry | primary human regulatory T cells | 0.03704 µM, 3 h | 100%

Series 3
Compound: CO[C@@H](C)c1c(Nc2ccc([C@H](N(C)C(=O)C3CCS(=O)(=O)CC3)C(F)(F)F)cc2)cnc2cc(Cl)nn12
Read-out: cell-free assay
Technique: competition with immobilised ligand
Concentration: 1 µM
target | remaining binding
Epidermal growth factor receptor (EGFR, Homo sapiens, UniProt P00533, del752-759) | 100%
RAC-alpha serine/threonine-protein kinase (AKT1, Homo sapiens, UniProt P31749) | 100%
Fibroblast growth factor receptor 3 (FGFR3, Homo sapiens, UniProt P22607) | 88%
Ribosomal protein S6 kinase alpha-1, N-terminal kinase domain (RPS6KA1, Homo sapiens, UniProt Q15418) | 71%
Calcium/calmodulin-dependent protein kinase kinase 1 (CAMKK1, Homo sapiens, UniProt Q8N5S9) | 80%
Activin receptor type-1 (ACVR1, Homo sapiens, UniProt Q04771) | 94%
Tyrosine-protein kinase receptor TYRO3 (TYRO3, Homo sapiens, UniProt Q06418) | 100%
Phosphatidylinositol 4,5-bisphosphate 3-kinase catalytic subunit alpha isoform (PIK3CA, Homo sapiens, UniProt P42336, E542K) | 71%

Series 4
Compound: C[C@H]1CC[C@H](n2c3cnccc3c3cnc(Nc4ccc5c(n4)CCN(C(=O)CO)C5)nc32)CC1
Technique: competition with immobilised ligand
Concentration: 1 µM
target | assay | remaining binding [%]
Ephrin type-A receptor 8 (EPHA8, Homo sapiens, UniProt P29322) | cell-free assay | 88
Cyclin-dependent kinase 14 (CDK14, Homo sapiens, UniProt O94921) | binding | 17
Mitogen-activated protein kinase kinase kinase kinase 5 (MAP4K5, Homo sapiens, UniProt Q9Y4K4) | binding | 100
Fibroblast growth factor receptor 2 (FGFR2, Homo sapiens, UniProt P21802) | cell-free assay | 100
RAF proto-oncogene serine/threonine-protein kinase (RAF1, Homo sapiens, UniProt P04049) | binding | 100
Tyrosine-protein kinase TXK (TXK, Homo sapiens, UniProt P42681) | binding | 73
Ephrin type-A receptor 7 (EPHA7, Homo sapiens, UniProt Q15375) | cell-free assay | 94
Fibroblast growth factor receptor 1 (FGFR1, Homo sapiens, UniProt P11362) | cell-free assay | 87
Mitogen-activated protein kinase 11 (MAPK11, Homo sapiens, UniProt Q15759) | binding | 87

Repeated from above (series 3):
target | remaining binding
RAC-alpha serine/threonine-protein kinase (AKT1, Homo sapiens, UniProt P31749) | 100%
Fibroblast growth factor receptor 3 (FGFR3, Homo sapiens, UniProt P22607) | 88%
Ribosomal protein S6 kinase alpha-1, N-terminal kinase domain (RPS6KA1, Homo sapiens, UniProt Q15418) | 71%
Calcium/calmodulin-dependent protein kinase kinase 1 (CAMKK1, Homo sapiens, UniProt Q8N5S9) | 80%
Activin receptor type-1 (ACVR1, Homo sapiens, UniProt Q04771) | 94%
Tyrosine-protein kinase receptor TYRO3 (TYRO3, Homo sapiens, UniProt Q06418) | 100%
Phosphatidylinositol 4,5-bisphosphate 3-kinase catalytic subunit alpha isoform (PIK3CA, Homo sapiens, UniProt P42336, E542K) | 71%
